# Results pooled from the literature.
# Each line is one published result; not all experiments were run side by side. ± marks the error that the study gave.
SMILES,test,system,conditions,quantity,result
C=CC(=O)N(C)CCOc1c(N)ncnc1-c1cc(F)cc(NC(=O)c2ccc(C3CC3)cc2F)c1C,,"human, whole blood","oral, 15 mg, single ascending dose",apparent clearance CL/F,511 L/h
Cc1cc(C)c(CNC(=O)c2cc(Cl)c3c(c2C)O[C@@](C)([C@H]2CC[C@H](N(C)C)CC2)O3)c(=O)[nH]1,population PK model,human,"oral, dose not given",apparent peripheral volume V3/F,2950 L
C[C@H](Cn1cnc2c(N)ncnc21)OCP(=O)(O)O,population PK model,"human, plasma","oral, dose not given, simultaneous model estimate",apparent volume of distribution,2380 L
OC[C@H]1O[C@@H](c2ccc(Cl)c(Cc3ccc(O[C@H]4CCOC4)cc3)c2)[C@H](O)[C@@H](O)[C@@H]1O,population pharmacokinetic model,human,,apparent oral clearance,10.6 L/h
Cc1cc(C)c(CNC(=O)c2cc(Cl)c3c(c2C)O[C@@](C)([C@H]2CC[C@H](N(C)C)CC2)O3)c(=O)[nH]1,,"healthy male human, plasma","oral, 25 mg, alone, before fluconazole",apparent volume of distribution,1310 L
CCn1c(=O)c(-c2cc(NC(=O)Nc3ccccc3)c(F)cc2Br)cc2cnc(NC)cc21,,"human, plasma","oral, 150 mg once daily, steady state",apparent clearance CL/F,13.5 L/h
CC(=O)N(C)[C@H]1CCN(C(=O)c2cnc3c(c2)C[C@](C)(c2ccc(F)cc2)N3)C1,,"healthy male human, plasma","oral, 15 mg once daily, steady state, geometric mean",apparent oral clearance,19.2 L/h
C[C@@H](Oc1ccc(S(C)(=O)=O)cc1C(=O)N1C[C@@H]2C[C@]2(c2cc(C(F)(F)F)on2)C1)C(F)(F)F,,"young healthy humans, plasma","oral, 10 mg once daily, multiple dosing",apparent clearance at steady state,84.1 mL/min
COc1cc(Nc2ncc3c(n2)-c2ccc(Cl)cc2C(c2c(F)cccc2OC)=NC3)ccc1C(=O)O,population PK model,"human cancer patients, plasma",oral,apparent intercompartmental clearance,7.53 L/h
O=C(O)CCC(=O)O.[2H]C([2H])([2H])Oc1cc(C)c2[nH]ccc2c1CN1CC[C@@H](C2CC2)C[C@H]1c1ccc(C(=O)O)cc1,,"healthy humans, fed","oral, 200 mg, single dose, high-fat meal",apparent clearance (CL/F),1.66 L/h
NC[C@@]1(CC(=O)O)[C@@H]2CC[C@H]3C[C@@H]2[C@@H]1C3,,"human, moderate renal impairment, plasma","oral, 20 mg single dose, geometric mean",apparent volume of distribution,44 L
CNC(=O)c1ccc(N2C(=S)N(c3ccc(C#N)c(C(F)(F)F)c3)C(=O)C2(C)C)cc1F,population PK base model,"human, male","oral, dose not given",apparent central volume,23.1 L
Cn1cc(-c2cn3nccc3c(-c3cnn([C@]4(CC#N)C[C@@H](C#N)C4)c3)n2)cn1,,"healthy humans fasted, plasma","10 mg single dose, geometric mean",apparent clearance CL/F,27.1 L/h
C=C[C@@H]1C[C@]1(NC(=O)[C@@H]1C[C@@H](Oc2ncc(OC)c3ccc(Cl)cc23)CN1C(=O)[C@@H](NC(=O)OC(C)(C)C)C(C)(C)C)C(=O)NS(=O)(=O)C1CC1,population PK full model,human,"oral, dose not given",apparent volume of distribution,78.2 L
COc1cc2c(Nc3ccc(Br)cc3F)ncnc2cc1OCC1CCN(C)CC1,,"human patients, plasma","65 mg/m^2, day 42",apparent oral clearance,67 ± 26 mL/min/m²
C=CC(=O)Nc1cc(Nc2ncc(C(=O)OC(C)C)c(-c3cn(C)c4ccccc34)n2)c(OC)cc1N(C)CCN(C)C,,healthy human volunteers,"oral, dose not given, capsule C vs capsules A and B",apparent peripheral volume,1120 L
Nc1nc2cccc(-c3ccc(CN4CCS(=O)(=O)CC4)cc3)n2n1,population PK SIR median,human,dose not given,apparent central volume,81.2 L
